Measured values of several laboratories.
A part holds a random share of what one study measured.
UniProt P07332, sequence (whole entry, looked up): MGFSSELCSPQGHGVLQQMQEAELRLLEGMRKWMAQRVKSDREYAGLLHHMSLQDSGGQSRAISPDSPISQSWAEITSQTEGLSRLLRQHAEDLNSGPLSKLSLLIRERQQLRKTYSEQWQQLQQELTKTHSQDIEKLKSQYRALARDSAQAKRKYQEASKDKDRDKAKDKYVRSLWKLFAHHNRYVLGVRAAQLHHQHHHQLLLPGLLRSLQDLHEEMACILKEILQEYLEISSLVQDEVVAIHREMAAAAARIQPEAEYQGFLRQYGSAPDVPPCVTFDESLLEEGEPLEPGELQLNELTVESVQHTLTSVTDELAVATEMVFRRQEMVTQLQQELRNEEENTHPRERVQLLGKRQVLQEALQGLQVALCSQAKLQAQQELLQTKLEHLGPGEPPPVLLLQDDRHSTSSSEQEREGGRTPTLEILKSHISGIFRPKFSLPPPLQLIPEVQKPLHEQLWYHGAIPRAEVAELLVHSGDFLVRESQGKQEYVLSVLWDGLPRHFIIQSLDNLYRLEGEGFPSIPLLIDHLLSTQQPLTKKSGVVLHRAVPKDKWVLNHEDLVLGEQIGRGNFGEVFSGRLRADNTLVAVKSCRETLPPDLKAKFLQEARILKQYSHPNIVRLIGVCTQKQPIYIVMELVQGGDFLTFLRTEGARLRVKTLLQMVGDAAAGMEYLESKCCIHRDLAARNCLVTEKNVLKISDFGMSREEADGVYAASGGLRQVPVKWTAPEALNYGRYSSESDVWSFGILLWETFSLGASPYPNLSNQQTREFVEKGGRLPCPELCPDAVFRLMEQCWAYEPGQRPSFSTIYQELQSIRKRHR
UniProt P07947, sequence (whole entry, looked up): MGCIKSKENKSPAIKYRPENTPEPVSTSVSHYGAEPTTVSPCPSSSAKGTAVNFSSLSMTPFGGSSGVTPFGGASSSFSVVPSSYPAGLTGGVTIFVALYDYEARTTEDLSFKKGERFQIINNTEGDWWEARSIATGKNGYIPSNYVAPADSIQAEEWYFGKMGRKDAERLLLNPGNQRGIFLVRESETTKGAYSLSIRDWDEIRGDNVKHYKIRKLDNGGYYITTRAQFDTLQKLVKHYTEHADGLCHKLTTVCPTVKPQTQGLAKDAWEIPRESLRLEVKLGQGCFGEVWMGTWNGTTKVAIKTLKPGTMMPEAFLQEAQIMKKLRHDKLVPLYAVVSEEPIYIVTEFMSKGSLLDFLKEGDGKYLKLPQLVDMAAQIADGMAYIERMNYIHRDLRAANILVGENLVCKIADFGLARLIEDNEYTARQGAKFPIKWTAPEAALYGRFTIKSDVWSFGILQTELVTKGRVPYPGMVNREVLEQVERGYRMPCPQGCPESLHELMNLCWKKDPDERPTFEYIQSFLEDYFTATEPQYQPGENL
UniProt P42336, sequence (whole entry, unmodified, looked up): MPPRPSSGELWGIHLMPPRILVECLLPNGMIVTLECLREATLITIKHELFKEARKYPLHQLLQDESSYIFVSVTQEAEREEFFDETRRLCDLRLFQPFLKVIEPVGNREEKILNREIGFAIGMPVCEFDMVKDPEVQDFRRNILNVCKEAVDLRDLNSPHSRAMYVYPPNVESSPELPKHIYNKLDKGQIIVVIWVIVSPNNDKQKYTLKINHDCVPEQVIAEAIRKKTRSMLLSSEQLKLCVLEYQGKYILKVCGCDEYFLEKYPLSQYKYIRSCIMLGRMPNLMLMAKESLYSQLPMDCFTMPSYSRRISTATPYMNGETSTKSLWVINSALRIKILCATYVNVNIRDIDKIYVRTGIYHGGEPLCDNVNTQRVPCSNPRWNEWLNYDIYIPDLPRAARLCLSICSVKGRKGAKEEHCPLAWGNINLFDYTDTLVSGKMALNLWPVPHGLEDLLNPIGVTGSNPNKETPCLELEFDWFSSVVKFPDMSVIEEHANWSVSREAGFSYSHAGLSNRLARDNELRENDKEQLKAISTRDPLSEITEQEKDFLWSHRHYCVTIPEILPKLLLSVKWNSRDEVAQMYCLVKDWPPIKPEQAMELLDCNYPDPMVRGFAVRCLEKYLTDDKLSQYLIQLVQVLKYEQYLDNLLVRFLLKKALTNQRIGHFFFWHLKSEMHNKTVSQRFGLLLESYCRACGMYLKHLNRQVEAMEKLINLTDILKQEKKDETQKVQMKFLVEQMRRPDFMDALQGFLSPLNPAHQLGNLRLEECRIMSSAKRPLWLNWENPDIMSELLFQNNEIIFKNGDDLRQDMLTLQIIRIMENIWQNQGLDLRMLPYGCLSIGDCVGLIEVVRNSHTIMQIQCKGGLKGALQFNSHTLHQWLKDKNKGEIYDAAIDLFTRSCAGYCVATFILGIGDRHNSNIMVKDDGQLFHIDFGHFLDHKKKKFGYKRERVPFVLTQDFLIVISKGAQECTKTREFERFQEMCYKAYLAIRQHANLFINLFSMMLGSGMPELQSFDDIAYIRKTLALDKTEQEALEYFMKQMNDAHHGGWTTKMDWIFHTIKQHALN
UniProt Q02763, sequence (whole entry, looked up): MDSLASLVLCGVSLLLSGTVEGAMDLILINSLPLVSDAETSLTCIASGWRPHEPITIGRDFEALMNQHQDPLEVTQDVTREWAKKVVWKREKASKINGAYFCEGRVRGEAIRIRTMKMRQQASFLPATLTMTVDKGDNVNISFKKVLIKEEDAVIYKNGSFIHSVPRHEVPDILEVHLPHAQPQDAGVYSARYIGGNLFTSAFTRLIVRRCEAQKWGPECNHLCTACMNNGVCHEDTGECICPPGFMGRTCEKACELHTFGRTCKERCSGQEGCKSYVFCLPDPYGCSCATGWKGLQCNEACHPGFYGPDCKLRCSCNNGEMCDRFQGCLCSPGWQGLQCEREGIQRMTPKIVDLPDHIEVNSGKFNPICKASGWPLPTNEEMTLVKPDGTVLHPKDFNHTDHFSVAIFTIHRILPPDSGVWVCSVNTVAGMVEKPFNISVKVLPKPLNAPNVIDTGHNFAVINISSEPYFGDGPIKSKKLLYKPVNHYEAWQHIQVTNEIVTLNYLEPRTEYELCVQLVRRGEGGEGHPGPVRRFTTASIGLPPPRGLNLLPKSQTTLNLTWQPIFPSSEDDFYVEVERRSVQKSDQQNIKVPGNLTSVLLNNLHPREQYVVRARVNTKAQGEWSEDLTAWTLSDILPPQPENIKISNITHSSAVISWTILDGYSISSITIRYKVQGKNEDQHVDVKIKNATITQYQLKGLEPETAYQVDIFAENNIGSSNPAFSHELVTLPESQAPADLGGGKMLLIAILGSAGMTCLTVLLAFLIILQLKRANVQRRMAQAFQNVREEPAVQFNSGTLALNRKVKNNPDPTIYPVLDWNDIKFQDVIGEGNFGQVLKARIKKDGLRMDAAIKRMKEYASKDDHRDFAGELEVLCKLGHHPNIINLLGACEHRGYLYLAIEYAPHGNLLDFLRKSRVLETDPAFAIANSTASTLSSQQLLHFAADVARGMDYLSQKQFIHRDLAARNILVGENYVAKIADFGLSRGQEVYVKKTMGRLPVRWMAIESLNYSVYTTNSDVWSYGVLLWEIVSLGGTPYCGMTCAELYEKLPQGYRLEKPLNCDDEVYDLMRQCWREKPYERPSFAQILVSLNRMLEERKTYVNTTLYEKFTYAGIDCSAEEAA

Set 1
Target: Probable WRKY transcription factor 50, DNA-binding domain (WRKY50, Arabidopsis thaliana, UniProt Q8VWQ5, residues 99-173)
Technique: DNA-protein interaction ELISA
Form: double-stranded DNA, one strand shown
Sample: in vitro, bacterial lysate
Tested at: not given
Notes: whole dsDNA probe, crude lysate protein
Relative to: highest signal in screen
Reading: higher = stronger binding
Target sequence (chain): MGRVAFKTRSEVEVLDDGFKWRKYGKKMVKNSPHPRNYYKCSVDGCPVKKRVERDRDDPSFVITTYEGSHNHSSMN
With `AAAAAACTCGCGCTTGCATCTGTGCGAAAA` the relative absorbance was 11.1 % of maximum.
The relative absorbance of `AAAAAACCCATCCTTCGTTCCATCGTAAAA` is reported as 34.6 % of maximum.
With `AAAAAACATTGATAAAATCTCCAGGCAAAA` the relative absorbance was 18 % of maximum.
`AAAAAACACAGCATTAGGCTATCGGTAAAA` has a relative absorbance of 14.2 % of maximum.
`AAAAAAATCCCACTTCATTCTAAAAA` gave a relative absorbance of 20.8 % of maximum.
`AAAAAACACGCCATTGACACTGGTAAAAAA` has a relative absorbance of 17.3 % of maximum.
With `AAAAAAATTTTTAGTTTTAATTTTGGAAAA` the relative absorbance was 22.4 % of maximum.
`AAAAAATCTTCACCTCACTTCGGTTTAAAA` gave a relative absorbance of 28.4 % of maximum.

Set 2
Target: TAR DNA-binding protein 43, full length, His tag (TARDBP, Homo sapiens, UniProt Q13148, residues 1-414)
Technique: RNA Bind-n-Seq
Form: RNA
Sample: in vitro
Tested at: 20 nM
Notes: 6-mer, flanks averaged, single round
Added: 150 mM KCl
Relative to: input library
Reading: higher = stronger binding
`CCAGUG` — result for “6-mer enrichment (R)”: 0.968.
`AAGGGC` — result for “6-mer enrichment (R)”: 2.
For `CACGCC`, “6-mer enrichment (R)” read 0.685.
`AGAUUA` — result for “6-mer enrichment (R)”: 0.585.
Under “6-mer enrichment (R)”, `CAUUCA` is recorded as 0.558.
`UGGCCU`: “6-mer enrichment (R)” 0.812.
`GCGAUC` — result for “6-mer enrichment (R)”: 0.821.
`CAAGAC` — result for “6-mer enrichment (R)”: 0.654.

Set 3
SMILES: COc1ccc2c(c1)O[C@@H](c1ccc(OC)c(OC)c1)C[C@H]2NC(=O)C1(c2ccc3c(c2)OC(F)(F)O3)CC1
Observed: cell-free assay
Technique: competition with immobilised ligand
Tested at: 1 µM
For Phosphatidylinositol 4,5-bisphosphate 3-kinase catalytic subunit alpha isoform (PIK3CA, Homo sapiens, UniProt P42336, E542K): remaining binding read 79%.
It gave 92% for remaining binding (Angiopoietin-1 receptor (TEK, Homo sapiens, UniProt Q02763)).
For Tyrosine-protein kinase Fes/Fps (FES, Homo sapiens, UniProt P07332): remaining binding read 93%.
It gave 100% for remaining binding (Tyrosine-protein kinase Yes (YES1, Homo sapiens, UniProt P07947)).

Set 4
Target: Serine/threonine-protein kinase PAK 1 (PAK1, Homo sapiens, UniProt Q13153)
UniProt Q13153, sequence (whole entry, looked up): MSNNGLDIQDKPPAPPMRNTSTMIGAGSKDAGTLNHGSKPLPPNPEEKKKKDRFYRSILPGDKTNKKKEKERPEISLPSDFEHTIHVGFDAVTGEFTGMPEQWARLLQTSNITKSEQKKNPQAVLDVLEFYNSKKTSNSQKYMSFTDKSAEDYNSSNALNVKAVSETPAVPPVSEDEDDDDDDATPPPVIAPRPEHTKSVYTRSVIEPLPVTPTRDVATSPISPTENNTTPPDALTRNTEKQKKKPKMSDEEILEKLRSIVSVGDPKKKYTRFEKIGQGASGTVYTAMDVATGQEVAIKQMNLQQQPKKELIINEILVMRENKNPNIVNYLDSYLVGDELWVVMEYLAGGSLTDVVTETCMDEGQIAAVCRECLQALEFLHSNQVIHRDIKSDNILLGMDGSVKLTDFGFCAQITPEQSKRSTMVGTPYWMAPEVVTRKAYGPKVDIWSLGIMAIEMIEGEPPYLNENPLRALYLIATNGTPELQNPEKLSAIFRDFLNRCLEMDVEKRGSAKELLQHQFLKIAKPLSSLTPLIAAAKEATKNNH
Observed: enzyme activity
Mode: inhibitor
Tested at: 0.5 µM
Relative to: control
With `COc1ccc(C(=O)Nc2sc3c(c2C(N)=O)CCCC3)cc1OC` the remaining activity was 94%.
`N#CC(C#N)=C(N)/C(C#N)=C/c1ccc(O)cc1` gave a remaining activity of 90.9%.
With `C#Cc1cccc(Nc2ncnc3cc(OCCOC)c(OCCOC)cc23)c1` the remaining activity was 109%.
The remaining activity of `O=C(Nc1cccc(Nc2cc(Nc3cccc(C(F)(F)F)c3)ncn2)c1)C1CC1` is reported as 96.6%.
With `O=C1NC(=O)C(c2cn(CCCO)c3ncccc23)=C1c1cnccn1` the remaining activity was 101%.
For `CN(C)c1ccc(C=C2C(=O)Nc3ccccc32)cc1`, the remaining activity was 95.7%.
`CNC(=O)c1cc(Oc2ccc(NC(=O)Nc3ccc(Cl)c(C(F)(F)F)c3)cc2)ccn1` gave a remaining activity of 108%.
The remaining activity of `O=C(O)c1ccc2c3c1cccc3c(=O)n1c3ccccc3nc21` is reported as 95.6%.
With `O=S(=O)(c1cccc2cnccc12)N1CCCNCC1` the remaining activity was 94.6%.
The remaining activity of `CO[C@H]1C[C@@H]2CC[C@@H](C)[C@@](O)(O2)C(=O)C(=O)N2CCCC[C@H]2C(=O)O[C@H]([C@H](C)C[C@@H]2CC[C@@H](O)[C@H](OC)C2)CC(=O)[C@H](C)/C=C(\C)[C@@H](O)[C@@H](OC)C(=O)[C@H](C)C[C@H](C)/C=C/C=C/C=C/1C` is reported as 95.6%.
For `COc1ccc(OC)c2c(=S)c3ccccc3[nH]c12`, the remaining activity was 89.2%.
`CC(C)[C@H](CO)Nc1nc(Nc2cc(N)cc(Cl)c2)c2ncn(C(C)C)c2n1` has a remaining activity of 81.8%.
`COc1cc2ncnc(Nc3ccc(Oc4ccccc4)cc3)c2cc1OC` gave a remaining activity of 98.2%.
`Nc1[nH]nc2nc3ccccc3nc12` has a remaining activity of 97.1%.

A few entries again (set 4):
The remaining activity of `CO[C@H]1C[C@@H]2CC[C@@H](C)[C@@](O)(O2)C(=O)C(=O)N2CCCC[C@H]2C(=O)O[C@H]([C@H](C)C[C@@H]2CC[C@@H](O)[C@H](OC)C2)CC(=O)[C@H](C)/C=C(\C)[C@@H](O)[C@@H](OC)C(=O)[C@H](C)C[C@H](C)/C=C/C=C/C=C/1C` is reported as 95.6%.
For `COc1ccc(OC)c2c(=S)c3ccccc3[nH]c12`, the remaining activity was 89.2%.
`CC(C)[C@H](CO)Nc1nc(Nc2cc(N)cc(Cl)c2)c2ncn(C(C)C)c2n1` has a remaining activity of 81.8%.
`COc1cc2ncnc(Nc3ccc(Oc4ccccc4)cc3)c2cc1OC` gave a remaining activity of 98.2%.
`Nc1[nH]nc2nc3ccccc3nc12` has a remaining activity of 97.1%.
